Measured values collected from several papers.
Lines come from different studies, so protocols differ.
Target: Ribosomal protein S6 kinase alpha-4 (RPS6KA4, Homo sapiens, UniProt O75676)
Chain of UniProt O75676 (whole entry, looked up): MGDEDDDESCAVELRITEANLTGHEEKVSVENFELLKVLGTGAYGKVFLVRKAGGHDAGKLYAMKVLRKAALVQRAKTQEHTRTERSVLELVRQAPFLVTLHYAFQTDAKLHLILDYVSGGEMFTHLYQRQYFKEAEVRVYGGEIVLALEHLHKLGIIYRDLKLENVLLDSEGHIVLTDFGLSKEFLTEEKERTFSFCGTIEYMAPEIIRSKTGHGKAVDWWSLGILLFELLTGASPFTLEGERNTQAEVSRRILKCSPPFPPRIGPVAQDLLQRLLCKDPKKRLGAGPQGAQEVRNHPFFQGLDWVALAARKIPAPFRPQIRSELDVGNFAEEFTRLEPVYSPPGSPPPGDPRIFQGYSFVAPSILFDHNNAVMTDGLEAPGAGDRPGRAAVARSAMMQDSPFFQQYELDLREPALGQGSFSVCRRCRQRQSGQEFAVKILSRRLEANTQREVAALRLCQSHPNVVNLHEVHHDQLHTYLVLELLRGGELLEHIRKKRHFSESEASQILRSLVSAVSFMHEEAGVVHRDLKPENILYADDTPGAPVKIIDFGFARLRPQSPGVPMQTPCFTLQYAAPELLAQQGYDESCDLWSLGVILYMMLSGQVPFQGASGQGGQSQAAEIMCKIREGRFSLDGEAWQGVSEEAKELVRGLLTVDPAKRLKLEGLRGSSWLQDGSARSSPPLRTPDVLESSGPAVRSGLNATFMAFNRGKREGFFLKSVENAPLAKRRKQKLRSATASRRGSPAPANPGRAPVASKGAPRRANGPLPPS

The inhibition of `Cc1cccc(O[C@H]2CCC[C@@H](C(C)CNCc3ccncc3)C2)c1` (relative stereo) is reported as -8% (enzyme activity, inhibitor; 10 µM).
With `Nc1ncc(-c2cc(-c3cnn(CC(F)(F)F)c3)ncc2F)nc1C(=O)NC1CNCC(F)C1` (stereo not shown) the remaining activity was 106% (enzyme activity; 1 µM; reference: DMSO control).
The inhibition of `CN1CCN(Cc2ccc(-c3ccc(CO[C@H]4CCC[C@@H]4NC(=O)c4cc(-c5cnn(C)c5)cnc4N)cc3)cc2)CC1` is reported as 6% (enzyme activity, inhibitor; 0.1 µM).
`CNC(=O)C[C@H](Cc1ccc(C#N)cc1)NC(=O)c1cc(-c2ccc(CN[C@H](C)c3ccc(C)cc3)o2)ccc1Cl`: “activity vs control” 86% (enzyme activity, inhibitor; 1 µM).
With `C=CC(=O)Nc1cccc(-c2cnc3[nH]cc(C(=O)NC(C)(C)C)c3n2)c1` the inhibition was 6% (enzyme activity, inhibitor; 0.1 µM).
`CCn1cc(C(=O)O)c(=O)c2c(N)c(F)c(NC3CCCCC3)cc21` gave an inhibition of 7.7% (kinase activity; 0.1 µM, added: ATP at Km).
With `NC(=O)C[C@H]1CCc2sc3ncnc(O[C@H]4CC[C@H](N5CCOCC5)CC4)c3c21` the inhibition was 5% (enzyme activity, inhibitor; 10 µM).
The remaining activity of `O=C=[N][Ru-4]123([n]4c5ccc(O)cc5c5c6c(c7cc(F)c[n+]1c7c54)C(=O)NC6=O)[S+]1CC[S+]2CC[S+]3CC1` (stereo not shown) is reported as 22% (enzyme activity; 100 nM, human enzyme, added: 10 µM ATP; reference: untreated).
`O=C(Cc1ccc(OCc2ccccc2)cc1)NC1(C(=O)O)CCN(C(=O)c2ccc(-c3cccc(Cl)c3)cc2)CC1` — result for “activity vs control”: 93% (enzyme activity, inhibitor; 10 µM).
With `COc1ccc(C(=O)/C=C/c2ccccc2-c2c[nH]c3ccc(C#N)cc23)c(O)c1` the inhibition was 26% (enzyme activity, inhibitor; 20 µM).
